# Experimental data collected from several papers.
# Each numbered part is a random draw from the data of one study; scales do not carry over between parts. Substitutions count along the parent as printed.
# Chain of UniProt Q8WTQ7 (whole entry, looked up): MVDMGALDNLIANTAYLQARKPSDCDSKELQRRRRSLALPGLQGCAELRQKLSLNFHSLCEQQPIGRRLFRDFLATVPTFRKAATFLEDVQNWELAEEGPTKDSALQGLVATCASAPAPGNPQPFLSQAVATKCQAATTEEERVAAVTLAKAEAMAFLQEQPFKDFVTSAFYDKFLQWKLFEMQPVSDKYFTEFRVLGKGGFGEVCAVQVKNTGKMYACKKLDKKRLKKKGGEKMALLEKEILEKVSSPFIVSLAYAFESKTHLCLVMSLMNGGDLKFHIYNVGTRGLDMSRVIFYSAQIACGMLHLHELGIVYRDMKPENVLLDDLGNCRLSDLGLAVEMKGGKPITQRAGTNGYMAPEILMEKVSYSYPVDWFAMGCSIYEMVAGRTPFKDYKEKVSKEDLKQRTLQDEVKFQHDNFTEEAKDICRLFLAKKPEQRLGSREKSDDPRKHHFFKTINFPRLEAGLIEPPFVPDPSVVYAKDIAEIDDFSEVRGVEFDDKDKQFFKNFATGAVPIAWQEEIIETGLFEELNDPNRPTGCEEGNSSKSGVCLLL
# Chain of UniProt Q04912 (whole entry, looked up): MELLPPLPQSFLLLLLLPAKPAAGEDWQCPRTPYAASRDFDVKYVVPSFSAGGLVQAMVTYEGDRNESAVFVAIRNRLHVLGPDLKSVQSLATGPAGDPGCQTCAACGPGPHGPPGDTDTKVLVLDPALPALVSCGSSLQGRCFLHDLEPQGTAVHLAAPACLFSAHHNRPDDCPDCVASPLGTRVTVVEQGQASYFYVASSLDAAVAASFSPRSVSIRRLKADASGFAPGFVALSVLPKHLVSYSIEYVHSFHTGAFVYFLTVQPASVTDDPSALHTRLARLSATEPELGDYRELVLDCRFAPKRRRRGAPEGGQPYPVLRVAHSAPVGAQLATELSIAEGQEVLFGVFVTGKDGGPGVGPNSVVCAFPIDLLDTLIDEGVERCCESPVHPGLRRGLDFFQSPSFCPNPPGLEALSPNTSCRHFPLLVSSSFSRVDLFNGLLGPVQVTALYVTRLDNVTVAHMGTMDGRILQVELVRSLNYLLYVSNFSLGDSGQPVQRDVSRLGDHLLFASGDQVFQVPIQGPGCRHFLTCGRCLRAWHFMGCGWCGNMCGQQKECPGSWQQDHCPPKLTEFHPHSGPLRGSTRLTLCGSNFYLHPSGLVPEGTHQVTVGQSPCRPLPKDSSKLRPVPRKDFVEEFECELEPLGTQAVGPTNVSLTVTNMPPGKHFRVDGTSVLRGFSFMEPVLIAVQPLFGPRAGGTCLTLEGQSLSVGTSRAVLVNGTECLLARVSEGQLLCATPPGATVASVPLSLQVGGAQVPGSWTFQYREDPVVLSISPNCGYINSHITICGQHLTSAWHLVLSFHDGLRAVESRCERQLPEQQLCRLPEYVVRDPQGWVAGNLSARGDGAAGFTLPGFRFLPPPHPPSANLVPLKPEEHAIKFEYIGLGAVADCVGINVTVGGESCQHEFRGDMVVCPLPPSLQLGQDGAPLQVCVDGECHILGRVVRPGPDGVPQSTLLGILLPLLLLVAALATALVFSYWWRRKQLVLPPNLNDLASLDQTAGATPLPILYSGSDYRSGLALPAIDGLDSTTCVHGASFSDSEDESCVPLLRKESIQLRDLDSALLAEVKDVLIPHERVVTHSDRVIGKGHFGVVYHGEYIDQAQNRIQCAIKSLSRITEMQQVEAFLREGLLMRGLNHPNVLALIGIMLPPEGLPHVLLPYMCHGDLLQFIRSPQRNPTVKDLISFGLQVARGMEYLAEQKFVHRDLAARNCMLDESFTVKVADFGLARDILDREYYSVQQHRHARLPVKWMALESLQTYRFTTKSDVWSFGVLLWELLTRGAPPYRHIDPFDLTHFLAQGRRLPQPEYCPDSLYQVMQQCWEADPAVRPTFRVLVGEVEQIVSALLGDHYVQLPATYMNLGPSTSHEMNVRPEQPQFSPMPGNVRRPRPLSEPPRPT
# Chain of UniProt P48730 (whole entry, looked up): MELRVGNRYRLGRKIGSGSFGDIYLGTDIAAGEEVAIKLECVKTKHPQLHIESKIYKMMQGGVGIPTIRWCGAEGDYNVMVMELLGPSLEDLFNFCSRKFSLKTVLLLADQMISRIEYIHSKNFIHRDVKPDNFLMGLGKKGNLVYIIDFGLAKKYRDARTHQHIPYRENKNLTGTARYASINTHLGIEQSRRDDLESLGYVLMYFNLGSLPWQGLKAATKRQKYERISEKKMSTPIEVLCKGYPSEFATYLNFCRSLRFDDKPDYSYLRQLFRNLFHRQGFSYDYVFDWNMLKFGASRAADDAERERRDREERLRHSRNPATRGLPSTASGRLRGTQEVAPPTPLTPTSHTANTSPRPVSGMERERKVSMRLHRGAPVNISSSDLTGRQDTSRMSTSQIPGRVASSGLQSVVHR
# Chain of UniProt P29597 (whole entry, looked up): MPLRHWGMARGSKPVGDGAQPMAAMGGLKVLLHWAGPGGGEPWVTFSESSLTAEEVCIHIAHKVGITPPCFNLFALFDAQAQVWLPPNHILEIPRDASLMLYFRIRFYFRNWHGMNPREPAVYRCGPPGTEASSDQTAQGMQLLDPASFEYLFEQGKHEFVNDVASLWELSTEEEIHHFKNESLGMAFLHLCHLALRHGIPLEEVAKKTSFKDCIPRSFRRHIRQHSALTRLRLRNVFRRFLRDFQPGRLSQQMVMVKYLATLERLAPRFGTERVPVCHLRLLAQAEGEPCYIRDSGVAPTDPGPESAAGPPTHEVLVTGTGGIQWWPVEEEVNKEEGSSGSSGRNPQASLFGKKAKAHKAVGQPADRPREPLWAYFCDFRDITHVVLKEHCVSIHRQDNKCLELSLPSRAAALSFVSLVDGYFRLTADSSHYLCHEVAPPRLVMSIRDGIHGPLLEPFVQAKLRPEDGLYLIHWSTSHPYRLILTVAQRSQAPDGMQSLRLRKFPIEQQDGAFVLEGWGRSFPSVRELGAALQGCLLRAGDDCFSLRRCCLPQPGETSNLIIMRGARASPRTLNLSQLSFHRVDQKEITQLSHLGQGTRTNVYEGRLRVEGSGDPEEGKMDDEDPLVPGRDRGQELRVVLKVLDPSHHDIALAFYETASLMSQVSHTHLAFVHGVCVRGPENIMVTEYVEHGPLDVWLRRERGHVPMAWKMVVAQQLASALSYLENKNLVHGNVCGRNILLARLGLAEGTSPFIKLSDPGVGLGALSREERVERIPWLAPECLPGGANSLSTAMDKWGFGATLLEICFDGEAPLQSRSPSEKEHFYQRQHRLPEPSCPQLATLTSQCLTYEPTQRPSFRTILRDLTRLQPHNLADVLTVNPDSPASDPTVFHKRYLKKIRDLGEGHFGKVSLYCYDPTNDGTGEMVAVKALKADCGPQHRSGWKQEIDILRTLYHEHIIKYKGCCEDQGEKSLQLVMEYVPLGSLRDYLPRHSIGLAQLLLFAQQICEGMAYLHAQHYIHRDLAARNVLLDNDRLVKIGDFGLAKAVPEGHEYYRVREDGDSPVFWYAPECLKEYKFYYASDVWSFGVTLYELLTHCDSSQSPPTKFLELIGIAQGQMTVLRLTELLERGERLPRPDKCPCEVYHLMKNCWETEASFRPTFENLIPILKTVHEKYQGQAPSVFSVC
# Chain of UniProt P45985 (whole entry, looked up): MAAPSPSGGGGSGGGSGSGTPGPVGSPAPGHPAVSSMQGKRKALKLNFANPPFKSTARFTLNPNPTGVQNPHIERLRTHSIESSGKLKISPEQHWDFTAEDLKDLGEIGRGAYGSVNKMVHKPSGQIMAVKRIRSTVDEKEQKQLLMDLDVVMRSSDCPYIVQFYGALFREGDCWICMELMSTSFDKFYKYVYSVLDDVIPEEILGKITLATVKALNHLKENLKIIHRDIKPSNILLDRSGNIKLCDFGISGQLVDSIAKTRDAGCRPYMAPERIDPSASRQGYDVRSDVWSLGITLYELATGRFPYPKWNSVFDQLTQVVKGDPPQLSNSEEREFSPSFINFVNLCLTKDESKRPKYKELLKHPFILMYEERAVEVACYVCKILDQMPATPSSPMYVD
# Chain of UniProt Q00537 (whole entry, looked up): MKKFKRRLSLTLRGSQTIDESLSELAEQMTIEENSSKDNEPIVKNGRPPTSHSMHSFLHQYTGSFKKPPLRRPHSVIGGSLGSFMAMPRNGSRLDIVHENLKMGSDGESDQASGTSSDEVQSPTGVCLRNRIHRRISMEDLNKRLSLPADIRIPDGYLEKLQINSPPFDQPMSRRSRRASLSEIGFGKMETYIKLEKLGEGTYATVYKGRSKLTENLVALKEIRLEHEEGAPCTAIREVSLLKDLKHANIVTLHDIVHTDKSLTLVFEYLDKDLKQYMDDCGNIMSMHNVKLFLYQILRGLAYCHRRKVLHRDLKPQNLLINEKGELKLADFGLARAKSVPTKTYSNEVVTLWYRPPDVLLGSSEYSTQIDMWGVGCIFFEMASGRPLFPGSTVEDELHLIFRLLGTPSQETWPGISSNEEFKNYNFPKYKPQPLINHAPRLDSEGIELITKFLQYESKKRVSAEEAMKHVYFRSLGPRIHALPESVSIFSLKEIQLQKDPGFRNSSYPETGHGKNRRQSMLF
# Chain of UniProt P54646 (whole entry, looked up): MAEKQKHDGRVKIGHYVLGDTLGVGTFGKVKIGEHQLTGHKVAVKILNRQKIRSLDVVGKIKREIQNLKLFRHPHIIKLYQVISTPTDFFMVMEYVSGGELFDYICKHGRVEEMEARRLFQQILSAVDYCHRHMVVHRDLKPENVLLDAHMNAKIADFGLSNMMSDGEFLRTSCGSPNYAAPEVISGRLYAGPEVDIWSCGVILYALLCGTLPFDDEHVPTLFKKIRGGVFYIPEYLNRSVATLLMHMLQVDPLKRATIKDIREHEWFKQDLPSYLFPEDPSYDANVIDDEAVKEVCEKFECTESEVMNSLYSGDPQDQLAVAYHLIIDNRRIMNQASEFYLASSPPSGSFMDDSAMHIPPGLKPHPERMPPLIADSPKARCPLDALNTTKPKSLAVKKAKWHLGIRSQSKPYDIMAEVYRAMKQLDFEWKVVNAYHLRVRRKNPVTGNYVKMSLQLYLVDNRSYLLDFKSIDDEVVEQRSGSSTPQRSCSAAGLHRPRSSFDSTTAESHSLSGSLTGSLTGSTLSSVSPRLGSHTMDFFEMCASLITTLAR

# Block 1
# Structure (SMILES): Cn1cncc1[C@](O)(COc1ccc(C#N)cc1-c1ccc(OC(F)(F)F)cc1)c1ccc(C#N)cc1
# Read-out: cell-free assay
# Technique: competition with immobilised ligand
# Concentration: 1 µM
target,remaining binding [%]
"pknB (Mycobacterium tuberculosis, UniProt P9WI81)",97
"PIK3CA (Homo sapiens, UniProt P42336, E542K)",80
"NUAK2 (Homo sapiens, UniProt Q9H093)",100
"GRK7 (Homo sapiens, UniProt Q8WTQ7)",100
"CDK17 (Homo sapiens, UniProt Q00537)",100
"PRKAA2 (Homo sapiens, UniProt P54646)",100
"CSNK1D (Homo sapiens, UniProt P48730)",100
"EPHA6 (Homo sapiens, UniProt Q9UF33)",100
"Non-receptor tyrosine-protein kinase TYK2, JH1 (TYK2, Homo sapiens, UniProt P29597)",56
"MAP2K4 (Homo sapiens, UniProt P45985)",89
"MST1R (Homo sapiens, UniProt Q04912)",100

# Block 2
# Target: HLA class I histocompatibility antigen, A alpha chain, allele A*80:01 (Homo sapiens, UniProt P04439)
# Read-out: peptide-MHC binding
# Form: peptide
# Concentration: concentration not given
Sequence,binding
KSFSAGMFH,inactive
ETLDVFGPI,inactive
HVTGRWNWW,inactive
HQAIISDVL,inactive
GMWCVLASR,inactive
SVMSTFFWE,inactive
RVGIYFGMK,inactive
LTDKSGSEY,inactive

# Block 3
# Target: CCNE2, cyclin fold, Cln2 fusion (human)
# Technique: yeast growth competition, sequencing
# Matrix: yeast
# Notes: strong parent motif
# Relative to: not given
# Reading: higher = stronger binding
# Starting sequence: viral docking peptide; KGVKRKLFAEDSS; partner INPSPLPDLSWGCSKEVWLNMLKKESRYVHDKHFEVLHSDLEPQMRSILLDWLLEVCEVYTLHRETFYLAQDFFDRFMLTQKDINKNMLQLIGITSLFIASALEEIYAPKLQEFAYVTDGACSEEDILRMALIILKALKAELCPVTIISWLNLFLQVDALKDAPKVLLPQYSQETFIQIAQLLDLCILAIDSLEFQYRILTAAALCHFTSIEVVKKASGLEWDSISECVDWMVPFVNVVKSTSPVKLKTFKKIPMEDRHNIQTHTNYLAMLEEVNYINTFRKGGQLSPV
Substitution,normalised enrichment score
KGVKRKLFAEDNS [S12N],6.96
KYVKRKLFAEDSS [G2Y],5.19
KTVKRKLFAEDSS [G2T],6.57
KGVKEKLFAEDSS [R5E],0.323
KGVVRKLFAEDSS [K4V],6.82
KGVKRKLFAECSS [D11C],6.06
KGVNRKLFAEDSS [K4N],3.64
KGVHRKLFAEDSS [K4H],1.54

# Other studies, line by line
Structure (SMILES),tested on,assay,conditions,quantity,value
Cn1c(CCCC(=O)O)nc2cc(N(CCCl)CCCl)ccc21,HaCaT,,"100 µM, 60 h",viability,116%
CNC(=O)Oc1ccc2c(c1)[C@]1(C)CCN(C)[C@@H]1N2C.CNC(=O)Oc1ccc2c(c1)[C@]1(C)CCN(C)[C@@H]1N2C.O=S(=O)(O)O,Sarcocystis neurona,parasite growth,10 µM,inhibition,-20.8%

# Some of these lines once more (block 1):
target,remaining binding [%]
"MST1R (Homo sapiens, UniProt Q04912)",100
"NUAK2 (Homo sapiens, UniProt Q9H093)",100
"GRK7 (Homo sapiens, UniProt Q8WTQ7)",100
"pknB (Mycobacterium tuberculosis, UniProt P9WI81)",97
"EPHA6 (Homo sapiens, UniProt Q9UF33)",100
